Measurements collected from several papers.
A part holds a random share of what one study measured. Substitutions count along the parent as printed.

Study 1 — method: RNA Bind-n-Seq; molecule type: RNA; sample: in vitro; concentration: 200 nM; notes: whole 134-nt RNA, ends assumed; added: 150 mM KCl; reference: input library; reading: higher = stronger binding
Target: Fragile X messenger ribonucleoprotein 1, C-terminal low-complexity region (Fmr1, Mus musculus, UniProt P35922)
Strand	log2 enrichment
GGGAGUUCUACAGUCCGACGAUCCAAGUCCUGUGCUACACAUCGUAUGUACCGAAUCGGAAAAAGGAGGUUUUUUUGGAAAGUAUUAUGUUACGCCGUUCGGAUCUGCACUUCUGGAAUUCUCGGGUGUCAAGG	-0.717
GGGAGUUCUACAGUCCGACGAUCCUGUGCUACACAUCGUAUGUACCGAAUCGGGAAAAAAAGGGGAAAAAAAGGGAAAAAAAGGAAAGUAUUAUGUUACGCCGUUCGGAUCUGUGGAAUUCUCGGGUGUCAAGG	-0.912
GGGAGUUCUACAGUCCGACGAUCUAACUUUAGAGGAGGAUCUGAUGGAUAUGGCAGUUGACGUGGAUUUGGGGAUGGCUAUAAUGGGUAUGGAGGAGGACCUGGAGGUGGCAAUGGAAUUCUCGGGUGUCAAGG	0.137
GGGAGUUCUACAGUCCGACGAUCCUGUGCUACACAUCGUAUGUACCGAAUCGGGGCCCCCCCGGGGCCCCCCCGGGCCCCCCCGGAAAGUAUUAUGUUACGCCGUUCGGAUCUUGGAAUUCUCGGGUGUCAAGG	-1.14
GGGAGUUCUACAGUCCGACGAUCAGUCCUGUGCUACACAUCGUAUGUACCGAAUCAAACCCAAACCCCCCCAAACCCAAAAAAGUAUUAUGUUACGCCGUUCGGAUCUGCACUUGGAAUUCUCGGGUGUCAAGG	-0.248
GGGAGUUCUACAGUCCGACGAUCUGGCCCUGGUGGCAUGCGGGGAGGAAGAGGUGACCUCAUGGAUCGUGGUGGUCCCGGUGGAAUGUUCAGAGGUGGCCGUGGUGGAGACAGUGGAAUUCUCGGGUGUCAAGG	-0.0186
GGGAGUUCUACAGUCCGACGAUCCCUGUGCUACACAUCGUAUGUACCGAAUCGGGGAAAAAAAGGAAAAAAAGGAAAAAAAGGAAAGUAUUAUGUUACGCCGUUCGGAUCUGCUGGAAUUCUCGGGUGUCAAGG	-0.43
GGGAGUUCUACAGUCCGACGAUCCCUGUGCUACACAUCGUAUGUACCGAAUCGGGGUUUUUUUGGGGAGGGGUUUUUUUGGGGAAAGUAUUAUGUUACGCCGUUCGGAUCUGCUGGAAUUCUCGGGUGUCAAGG	0.404
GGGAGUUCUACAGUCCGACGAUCAAGUCCUGUGCUACACAUCGUAUGUACCGAAUCGGUUUUGGGUUUUGGGUUUUGGGGAAAGUAUUAUGUUACGCCGUUCGGAUCUGCACUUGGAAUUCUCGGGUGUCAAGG	-0.183

Study 2 — method: universal PBM; molecule type: double-stranded DNA, one strand shown; sample: in vitro; concentration: not given; reading: higher = stronger binding
Target: Sal-like protein 4, full length isoform B (SALL4, Homo sapiens, UniProt Q9UJQ4-2, residues 1-616)
Notes: 8-mer, flanks averaged, mean of replicates
Strand	E-score
GCGCCTTA	-0.21
ATGGTATC	0.112
AGGAAGCG	-0.1
AGATACCC	0.153
GTTCGAGA	-0.0946
GATACGAC	0.0136
CATCAAGA	0.0696
CTCCTCTC	-0.144
AGCTTATG	0.127
CTGCACGA	-0.128
GCATTAAC	0.0626
CGCTGGGC	-0.319
TACCGGAA	-0.0168
AATCAACT	0.074
GCCGGACC	-0.394
CACGTTAG	-0.0055
TTACAAAA	0.241
ATAACACG	0.176
ACGCTAAA	0.18
CGCTGGCC	-0.417
CCGGAACC	-0.433
GCGAGCAC	-0.185
GTAAGCTA	0.107
CAATCGTA	0.182
ATTCGGCA	-0.0525

Study 3 — target: CCNF, cyclin fold, Cln2 fusion (human); method: yeast growth competition, sequencing; sample: yeast; notes: strong parent motif; reference: not given; reading: higher = stronger binding
Starting sequence: CDKN1A docking peptide (human); SKACRRLFGPVDS; partner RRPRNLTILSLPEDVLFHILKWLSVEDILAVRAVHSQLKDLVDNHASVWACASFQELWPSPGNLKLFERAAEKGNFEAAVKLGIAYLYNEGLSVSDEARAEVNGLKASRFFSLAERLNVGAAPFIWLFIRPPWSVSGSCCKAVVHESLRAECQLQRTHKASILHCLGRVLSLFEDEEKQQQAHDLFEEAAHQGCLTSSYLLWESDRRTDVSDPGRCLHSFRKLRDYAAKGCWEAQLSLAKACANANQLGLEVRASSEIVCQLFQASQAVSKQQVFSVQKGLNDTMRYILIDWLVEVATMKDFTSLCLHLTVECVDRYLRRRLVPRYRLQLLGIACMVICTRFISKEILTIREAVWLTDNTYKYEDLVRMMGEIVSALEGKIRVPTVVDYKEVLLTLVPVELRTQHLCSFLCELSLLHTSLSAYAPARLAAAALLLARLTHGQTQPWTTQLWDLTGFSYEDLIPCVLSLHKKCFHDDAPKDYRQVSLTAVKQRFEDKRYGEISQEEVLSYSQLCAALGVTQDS
Change	normalised enrichment score
L7A	0.366
L7F	1.14
S13A	8.44
G9I	7.6
R5K	4.07
V11N	7.49
A3F	3.86
C4P	3.59
V11P	7.31
R5A	0.588
D12A	6.86
P10R	6.59
K2H	7.74
D12Q	7.04
F8M	0.902
D12W	7.2
F8C	0.67

Study 4 — method: RNA Bind-n-Seq; molecule type: RNA; sample: in vitro; concentration: 365 nM; reference: no-protein control; reading: higher = stronger binding
Target: RNA binding protein fox-1 homolog 2, RRM domain, GST-SBP tag (RBFOX2, Homo sapiens, UniProt O43251-10, residues 100-194)
Notes: natural RNA segment, single round, ends assumed
Residues (chain): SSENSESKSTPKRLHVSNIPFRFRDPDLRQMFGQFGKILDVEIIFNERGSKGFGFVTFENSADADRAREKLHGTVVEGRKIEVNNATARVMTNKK
Strand	RBNS enrichment (R)
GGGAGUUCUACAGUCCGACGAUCUUUUCCAUGGGGCACUCACUCAGAAUAUUACAAGCCAUUUUAUUGCCAAAACCAGCAAGUACACCGAAUCCUGAGACAAGGCAGUUCUUGUGACAGUGCCUUGGCCUCCUUGGAAUUCUCGGGUGCCAA	0.547
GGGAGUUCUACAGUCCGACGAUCAUUGGUAUUCAAAGCAAAACUGACAGUUUUCCCCUGUGUCAGGUUUUGCCAUCCCAAUCUUAAGACUGUCUCAUAAUUACCAUGUUGAGGGAAACGCCCCCAGACUCCUGUGGAAUUCUCGGGUGCCAA	0.469
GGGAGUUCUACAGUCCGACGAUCUUGUUUUAUCAUCAGCCAAGUUAAACCCCUGCUUCCUGCCUUUUACACCUAUUGCGUGAACAGAAUAUGCAUUAUUAAAGCAAAAAUAAAUAAAAAAUAAAAUGCAAGUGUGGAAUUCUCGGGUGCCAA	0.764
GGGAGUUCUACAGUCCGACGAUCUAAACAUAAAUAAAUUCCUGAGAGUGUCCUAUAUUUGGAUUGUGAUUUGUAGACUCAUGCUAACUUUACUGCCUCUUUUUCACACUUGUUGAAAAAUCUGUGAAGAACAUUGGAAUUCUCGGGUGCCAA	0.361
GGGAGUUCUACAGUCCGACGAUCCGGGCUGUCUGCUCUCCCUCCUAGCAGCUGUCACACUGAAGUUUUGUCCUCUGCUGUCUCCUCUGGUCCUGAGAUGAGCUGUGAGCCUAGGUGGCCAAGGCUUCCUGCAUUGGAAUUCUCGGGUGCCAA	0.306
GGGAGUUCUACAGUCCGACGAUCAUCACUUAUUCAAGGUGGGAUUUUAUGGGGAUUUUUUUCAUUUUUAGCUUUCUGUUAAAUACUUGCAGAAAAAAAAAAUAGCAAGUACAAUAUGACAGUAGUACAACAACUGGAAUUCUCGGGUGCCAA	0.682
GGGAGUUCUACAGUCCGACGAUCAUGACACUAUAUAAAAUUUUCAUUUGAGAAUUUCUCAAUUGUAUCUAGUUAAAUAGCACAGUUUGGAAACUUGUCUGAGACUGACUUUAUCAAUAAUCUAACCGACAAAGUGGAAUUCUCGGGUGCCAA	0.336
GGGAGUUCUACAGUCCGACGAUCAGGAGGCUGCUACAUUCCUCUCGUUCUGUCUCACACACUCUUCCUCCGAGUUUGUGUGUCUAGAACUUGGAUGUUUCCAUAAGGAAAACAGAACUGUGGUAUUGUUUCGAUGGAAUUCUCGGGUGCCAA	0.396
